# Experimental data from different studies.
# Lines come from different studies, so protocols differ.
# Organism: Staphylococcus aureus
Structure (SMILES),assay,test system,conditions,MIC
CC1=C[C@@]2(C)C(=C(C)[C@H]3[C@@H]4C[C@H](C)C[C@H](C)[C@H]4[C@H]4Oc5ccc(cc5)C[C@@H]5C(=O)NC(=O)[C@H]5C(=O)[C@@H]2[C@@H]43)[C@H]1C,"microbial growth, broth dilution",ATCC700699 MRSA,drug-resistant strain,12.5 µM
CCCO[C@H]1[C@H](O)[C@@H](N)[C@@H](O[C@H]2[C@H](O[C@@H]3O[C@H](CO)[C@@H](O[C@H]4O[C@@H](CN)[C@@H](O)[C@H](O)[C@H]4N)[C@H]3O)[C@@H](O)[C@H](N)C[C@@H]2N)O[C@@H]1CO,broth microdilution,MRSA isolate AG 042,,8 to 16 µg/mL
CN1C(=O)[C@@H]2NC(=O)[C@@H]3NC(=O)[C@@H](c4ccc(O)cc4)NC(=O)[C@H](NC(=O)C(NCc4cc(Cl)cc(Cl)c4Cl)c4ccc(O)cc4)Cc4c[nH]c5cc(ccc45)-c4cc3cc(c4O)Oc3ccc(cc3)C[C@H]1C(=O)N[C@@H](C(=O)O)c1ccc(O)c(c1)Oc1ccc2cc1 (stereo partly shown),,"ATCC 33591 MRSA, Mueller-Hinton broth",,4 µg/mL
O=[N+]([O-])c1ccc2c(c1)C=[N+]1N3C(=[O+][Cu-2]1([Cl])[O]2)c1ccccc1NC3c1cc([N+](=O)[O-])ccc1O (stereo not shown),broth microdilution,MRSA clinical isolate SA 3202,"24 h, 37 °C",16 µg/mL
CC[C@H](C)[C@H](NC(=O)[C@@H](Cc1ccccc1)NC)C(=O)N[C@@H](CO)C(=O)N[C@H](CCC(N)=O)C(=O)N[C@@H](C(=O)N[C@H](C(=O)OC[C@H](N)C(=O)N[C@H]1C(=O)N[C@@H](C)C(=O)N[C@@H](C2CCCCC2)C(=O)N[C@@H]([C@@H](C)CC)C(=O)O[C@H]1C)[C@@H](C)CC)[C@@H](C)CC,broth microdilution,"ATCC 700698, MRSA, brain heart infusion broth","16 h, 37 °C",0.5 µg/mL
C[C@H](N)[C@@H](CCCCCCCCCCCCCCC(=O)CCCCCCC[C@@H](O)[C@@H](C)N)O[C@@H]1O[C@H](CO)[C@H](O)[C@H](O)[C@H]1O,"microbial growth, resazurin",ATCC12600,6 h,3.88 µM
COc1ccc2c(c1CC=C(C)C)O[C@H]1c3cc(CC=C(C)C)c(O)cc3OC[C@@H]21,,,,128 µg/mL
CC[C@H](C)[C@H](NC(=O)[C@@H](CCCNC(=N)N)NC(=O)[C@H](CCCNC(=N)N)NC(=O)[C@H](CCCNC(=N)N)NC(=O)[C@H](Cc1c[nH]c2ccccc12)NC(=O)[C@H](CCCNC(=N)N)NC(=O)[C@@H]1CCCN1C(=O)[C@H](CCCNC(=N)N)NC(=O)[C@@H]1CCCN1C(=O)[C@H](CC(C)C)NC(=O)[C@H](Cc1ccc(O)cc1)NC(=O)[C@@H]1CCCN1C(=O)[C@@H]1CCCN1C(=O)[C@H](CCCCN)NC(=O)[C@H](CC(=O)O)NC(=O)[C@@H](N)C(C)C)C(=O)N[C@@H](Cc1ccc(O)cc1)C(=O)N[C@@H](CC(N)=O)C(=O)N[C@H](CCCNC(=N)N)C(N)=O,broth microdilution,DSM 6247,18 h,16 µg/mL
CC[C@H](C)[C@H](NC(=O)[C@H](CCCCN)NC(=O)[C@H](CC(N)=O)NC(=O)[C@H](Cc1c[nH]c2ccccc12)NC(=O)[C@H](Cc1ccccc1)NC(=O)[C@H](CCCCN)NC(=O)[C@H](CCCCNC(=N)N)NC(=O)[C@H](CC(C)C)NC(=O)[C@H](Cc1c[nH]c2ccccc12)NC(=O)[C@H](CCCCN)NC(=O)[C@H](CCCCNC(=N)N)NC(=O)[C@H](CC(C)C)NC(=O)CNC(C)=O)C(=O)N[C@@H](CCCCN)C(=O)N[C@@H](CCCCNC(=N)N)C(N)=O,,,"12 h, together with: plasma pretreatment",6.25 µM
CC(C)C[C@H](NC(=O)[C@H](CC(C)C)NC(=O)[C@H](C)NC(=O)[C@H](NC(=O)[C@H](CO)NC(=O)[C@@H](CCCCN)NC(=O)[C@@H](CC(C)C)NC(=O)[C@@H](N)Cc1ccccc1)[C@@H](O)C(N)=O)C(=O)O,,MRSA ATCC 700698,TFA salt,> 32 µg/mL
CN[C@@H]1[C@H](O)[C@H](NC)[C@H]2O[C@]3(O)[C@H](O[C@@H]2[C@H]1O)O[C@H](C)C[C@@]3(O)CNCc1ccccc1,,MSSA ATCC 29213,,50 µg/mL
CC(=O)N[C@@H](CCCNC(=N)N)C(=O)N[C@@H](Cc1c[nH]c2ccccc12)C(=O)N[C@@H](CCCNC(=N)N)C(=O)N[C@@H](Cc1c[nH]c2ccccc12)C(=O)N[C@@H](Cc1c[nH]c2ccccc12)C(=O)N[C@@H](CCCCN)C(=O)N1CCC[C@H]1C(=O)N[C@H](C(N)=O)C(C)C,,"MRSA ATCC 33591, Mueller-Hinton broth","overnight, 37 °C",> 90.8 µM
c1ccc(CN2CCOCCOCCN(CCCCCCCCCCCCCCN3CCOCCOCCN(CCCCCCCCCCCCCCN4CCOCCOCCN(Cc5ccccc5)CCOCCOCC4)CCOCCOCC3)CCOCCOCC2)cc1,"checkerboard, refers to: norfloxacin",1199B,"500 nM, together with: norfloxacin",0.5 µM
CC[C@H](C)[C@H](N)C1=N[C@H](C(=O)N[C@@H](CC(C)C)C(=O)N[C@H](CCC(=O)O)C(=O)N[C@H](C(=O)N[C@H]2CCCCNC(=O)[C@H](CC(N)=O)NC(=O)[C@@H](CC(=O)O)NC(=O)[C@H](Cc3c[nH]cn3)NC(=O)[C@@H](Cc3ccc4ccccc4c3)NC(=O)[C@H]([C@@H](C)CC)NC(=O)[C@@H](CCCN)NC2=O)[C@@H](C)CC)CS1,,USA300 MRSA,"18 h, 37 °C, together with: ZnSO4 0.3 mM",1 µg/mL
CCCCCCCCCCCCCC(=O)N[C@H](CCN)C(=O)N[C@@H]1C(=O)N[C@@H](CCN)C(=O)N[C@@H](CC(C)C)C(=O)N[C@@H](CCN)C(=O)N[C@H](Cc2ccccc2)C(=O)N[C@@H](CC(C)C)C(=O)N[C@@H](CCN)C(=O)N[C@H](CCN)C(=O)N[C@@H](C(C)C)C(=O)N[C@@H](CC(=O)O)C(=O)O[C@@H]1C,broth microdilution,"ATCC BAA-44, methicillin-resistant MDR",,2 µg/mL
CC(C)CCCCCCCCC/C=C/C(=O)N[C@@H](CC(=O)O)C(=O)N[C@H]1CNC(=O)[C@@H]2CCCN2C(=O)CNC(=O)[C@@H]([C@@H](C)O)NC(=O)CNC(=O)[C@H](CC(=O)O)NC(=O)CNC(=O)[C@H](CC(=O)O)NC(=O)CNC(=O)[C@H]2CCCCN2C1=O,,MRSA USA300,together with: Ca2+ 10 mM,> 64 µg/mL
CCCCc1ccc(N2C(=O)/C(=N\NC(=N)N)c3cc(F)ccc32)cc1,broth microdilution,BAA41 MRSA,"18 h, 37 °C",12 µg/mL
CC(C)C[C@@H]1NC(=O)[C@H](C)NC(=O)[C@H](NC(=O)[C@H](CO)NC(=O)[C@@H](CCCCN)NC(=O)[C@@H](CC(C)C)NC(=O)[C@H](C)N)[C@H](C(N)=O)OC(=O)[C@H](CC(C)C)NC1=O,,MRSA ATCC 700698,TFA salt,16 µg/mL
C=Cc1cc(OC)c2c(c1)c(=O)oc1c2cc(OC)c2c(O)ccc([C@@H]3O[C@H](C)[C@H](O)[C@@](C)(O)[C@H]3O)c21,"microbial growth, broth dilution",MRSA USA300,,0.5 µg/mL

# Excerpt of the above:
Structure (SMILES),assay,test system,conditions,MIC
CC(C)CCCCCCCCC/C=C/C(=O)N[C@@H](CC(=O)O)C(=O)N[C@H]1CNC(=O)[C@@H]2CCCN2C(=O)CNC(=O)[C@@H]([C@@H](C)O)NC(=O)CNC(=O)[C@H](CC(=O)O)NC(=O)CNC(=O)[C@H](CC(=O)O)NC(=O)CNC(=O)[C@H]2CCCCN2C1=O,,MRSA USA300,together with: Ca2+ 10 mM,> 64 µg/mL
COc1ccc2c(c1CC=C(C)C)O[C@H]1c3cc(CC=C(C)C)c(O)cc3OC[C@@H]21,,,,128 µg/mL
